Experimental data of several laboratories.
Each line is one published result; not all experiments were run side by side.

CC1NC(=O)C(C(=O)NC(C(=O)NC2C(=O)N3C2SC(C)(C)C3C(=O)O)c2ccccc2)=C1O (stereo not drawn) — MIC (Escherichia coli; broth microdilution; ATCC 25922 wild type; no clavulanic acid): 25 µg/mL
c1ccc(OCCn2c(CNCC34CC5CC(CC(C5)C3)C4)nc3ccccc32)cc1 — MIC (Enterobacter aerogenes; ATCC 35029): > 128 µg/mL
CC[C@H](C)[C@H](NC(=O)[C@H](CCCCN)NC(=O)[C@H](CCC(=O)O)NC(=O)CNC(=O)CNC(=O)[C@H](CCCCN)NC(=O)[C@H](CCCNC(=N)N)NC(=O)[C@H](CC(C)C)NC(=O)[C@H](CC(C)C)NC(=O)CN)C(=O)NCC(=O)N[C@@H](CCC(=O)O)C(=O)N[C@@H](CCCCN)C(=O)N[C@@H](CC(C)C)C(=O)N[C@@H](CCCCN)C(=O)N[C@@H](CCCCN)C(=O)N[C@H](C(=O)NCC(=O)N[C@@H](CCC(N)=O)C(=O)N[C@@H](CCCCN)C(=O)N[C@H](C(=O)N[C@@H](CCCCN)C(=O)N[C@@H](CC(N)=O)C(=O)N[C@@H](Cc1ccccc1)C(=O)N[C@@H](Cc1ccccc1)C(=O)N[C@@H](CCC(N)=O)C(=O)N[C@@H](CCCCN)C(=O)N[C@@H](CC(C)C)C(=O)N[C@H](C(=O)N1CCC[C@H]1C(=O)N[C@@H](CCC(N)=O)C(=O)N1CCC[C@H]1C(=O)N[C@@H](CCC(=O)O)C(=O)N[C@@H](CCC(N)=O)C(=O)O)C(C)C)[C@@H](C)CC)[C@@H](C)CC — MIC (Micrococcus luteus; broth microdilution; ATCC 4698): 2.06 µM
CO/N=C(\C(=O)N[C@@H]1C(=O)N2C(C(=O)O)=C(CSc3nc(=O)c(O)nn3C)CS[C@H]12)c1csc(N)n1 — MIC (Neisseria gonorrhoeae; broth microdilution; WHO M; 1.5 h): 0.25 µg/mL
CCCCCOc1ccc(-c2ccc(-c3ccc(C(=O)N[C@H]4C[C@@H](O)[C@@H](OCC[N+](C)(C)C)NC(=O)[C@@H]5[C@@H](O)[C@@H](C)CN5C(=O)[C@H]([C@@H](C)O)NC(=O)[C@H]([C@H](O)[C@@H](O)c5ccc(O)cc5)NC(=O)[C@@H]5C[C@@H](O)CN5C(=O)[C@H]([C@@H](C)O)NC4=O)cc3)cc2)cc1 — MIC (Candida glabrata; CLSI broth microdilution; 35315): 0.25 µg/mL
N=C(N)c1ccc(OCCCCCOc2ccc(C(=N)N)cc2)cc1 — MIC (Escherichia coli; mcr-2 polymyxin-resistant; 20 h, compound alone): 200 µg/mL
N#Cc1ccc2[nH]c(CNCC34CC5CC(CC(C5)C3)C4)nc2c1 — MIC (Enterobacter aerogenes; ATCC 35029): > 128 µg/mL
CC1(C)S[C@@H]2[C@H](NC(=O)Cc3ccccc3)C(=O)N2[C@H]1C(=O)O — MIC (Neisseria gonorrhoeae; broth microdilution; WHO N; 1.5 h): 64 µg/mL
Cc1c(CN(C)C(=O)/C=C/c2cnc3c(c2)CCC(=O)N3)oc2ccccc12 — MIC (Escherichia coli; broth microdilution; MG1655; 4% human serum albumin): > 32 µg/mL
CC1(C)SC2C(NC(=O)C(NC(=O)C3=C(O)C4CCCN4C3=O)c3ccccc3)C(=O)N2C1C(=O)O (stereo not drawn) — MIC (Escherichia coli; broth microdilution; ATCC 25922 wild type; together with: clavulanic acid 6 µg/mL): 12.5 µg/mL
OC(Cn1cncn1)(Cn1cncn1)c1ccc(F)cc1F — MIC (Candidozyma auris; inhibitor; 279; 24 h): 128 µg/mL
CN[C@H](CC(C)C)C(=O)N[C@H]1C(=O)N[C@@H](CC(N)=O)C(=O)N[C@H]2C(=O)N[C@H]3C(=O)N[C@H](C(=O)N[C@H](C(=O)O)c4cc(O)cc(O)c4-c4cc3ccc4O)[C@H](O)c3ccc(c(Cl)c3)Oc3cc2cc(c3O[C@@H]2O[C@H](CO)[C@@H](O)[C@H](O)[C@H]2O[C@H]2C[C@](C)(N)[C@H](O)[C@H](C)O2)Oc2ccc(cc2Cl)[C@H]1O — MIC (Staphylococcus epidermidis; MRSE-8, methicillin-resistant): 0.5 µg/mL
CC(C)C[C@@H]1NC(=O)[C@@H](Cc2ccccc2)NC(=O)[C@H](CCN)NC(=O)[C@@H](NC(=O)[C@H](CCN)NC(=O)[C@@H](N)[C@@H](C)O)CCNC(=O)[C@H]([C@@H](C)O)NC(=O)[C@H](CCN)NC(=O)[C@H](CCN)NC1=O — MIC (Escherichia coli; ATCC 25922; in combination, checkerboard, together with: rifampicin): 6.25 µg/mL
CC[C@H](C)[C@H](NC(=O)[C@H](CCCCN)NC(=O)[C@H](CCC(=O)O)NC(=O)[C@H](CCCCN)NC(=O)[C@H](CO)NC(=O)[C@H](CCCCN)NC(=O)[C@H](CCCNC(=N)N)NC(=O)[C@H](Cc1ccccc1)NC(=O)[C@H](Cc1ccccc1)NC(=O)[C@H](CC(=O)O)NC(=O)CNC(=O)[C@H](CC(C)C)NC(=O)[C@@H](N)CC(C)C)C(=O)NCC(=O)N[C@@H](CCCCN)C(=O)N[C@@H](CCC(=O)O)C(=O)N[C@@H](Cc1ccccc1)C(=O)N[C@@H](CCCCN)C(=O)N[C@@H](CCCNC(=N)N)C(=O)N[C@H](C(=O)N[C@H](C(=O)N[C@@H](CCC(N)=O)C(=O)N[C@@H](CCCNC(=N)N)C(=O)N[C@H](C(=O)N[C@@H](CCCCN)C(=O)N[C@@H](CC(=O)O)C(=O)N[C@@H](Cc1ccccc1)C(=O)N[C@@H](CC(C)C)C(=O)N[C@@H](CCCNC(=N)N)C(=O)N[C@@H](CC(N)=O)C(=O)N[C@@H](CC(C)C)C(=O)N[C@H](C(=O)N1CCC[C@H]1C(=O)N[C@@H](CCCNC(=N)N)C(=O)N[C@H](C(=O)N[C@@H](CCC(=O)O)C(=O)N[C@@H](CO)C(=O)O)[C@@H](C)O)C(C)C)[C@@H](C)CC)C(C)C)[C@@H](C)CC — MIC (Micrococcus luteus; broth microdilution; ATCC 4698): 0.89 µM
CC1(C)S[C@@H]2[C@H](NC(=O)[C@H](N)c3ccccc3)C(=O)N2[C@H]1C(=O)O — MIC (Pseudomonas aeruginosa; clinical isolate RKI-No_612/16): > 16 µg/mL
CC(C)(CN)CNCc1nc2ccccc2n1CCOc1ccccc1 — MIC (Enterobacter aerogenes; ATCC 35029): 16 µg/mL
CC1(C)S[C@@H]2[C@H](NC(=O)[C@H](N)c3ccccc3)C(=O)N2[C@H]1C(=O)O — MIC (Escherichia coli; broth microdilution; ATCC 25922 wild type; together with: clavulanic acid 6 µg/mL): 1.56 µg/mL
NC[C@H]1O[C@H](O[C@H]2[C@H](O)[C@@H](O[C@H]3O[C@H](CO)[C@@H](O)[C@H](N)[C@H]3O)[C@H](N)C[C@@H]2N)[C@H](O)[C@@H](O)[C@@H]1O — MIC (Micrococcus luteus; broth microdilution; ATCC 4698): 3.43 µM
N=C(N)c1ccc(OCc2cc(Br)cc(COc3ccc(C(=N)N)cc3)c2)cc1 — MIC (Escherichia coli; mcr-1 polymyxin-resistant; 20 h, compound alone): 100 µg/mL
CC[C@H]1OC(=O)[C@H](C)[C@@H](O[C@H]2C[C@@](C)(OC)[C@@H](O)[C@H](C)O2)[C@H](C)[C@@H](O[C@@H]2O[C@H](C)C[C@H](N(C)C)[C@H]2O)[C@](C)(O)C[C@@H](C)CN(C)[C@H](C)[C@@H](O)[C@]1(C)O — MIC (Neisseria gonorrhoeae; broth microdilution; WHO G; 1.5 h): 0.0625 µg/mL
CC(C)CC1NC(=O)C(C(=O)NC(C(=O)NC2C(=O)N3C2SC(C)(C)C3C(=O)O)c2ccccc2)=C1O (stereo not drawn) — MIC (Escherichia coli; broth microdilution; BW25113 wild type; 18 h): 50 µg/mL
O=C(NCc1ccccc1)C(c1cccs1)N(CCN1CCOCC1)C(=O)c1ccccc1 (stereo not drawn) — MIC (Micrococcus luteus; DSM 1790): > 128 µM
C[C@H]1COc2c(N3CCN(C)CC3)c(F)cc3c(=O)c(C(=O)O)cn1c23 — MIC (Enterobacter aerogenes; agar dilution; ATCC 13048 susceptible): 0.06 µg/mL
OC(Cn1cncn1)(Cn1cncn1)c1ccc(F)cc1F — MIC (Candidozyma auris; broth microdilution; CBS 15108; 24 h): > 400 µM
